Assay results from different studies.
KIT L576P: Mast/stem cell growth factor receptor Kit (KIT, Homo sapiens, UniProt P10721, L576P)
KIT D816H: Mast/stem cell growth factor receptor Kit (KIT, Homo sapiens, UniProt P10721, D816H)

The remaining binding of `Nc1ncc2c(n1)-c1c([nH]c3ccc(C4=CCOCC4)cc13)CCC2` is reported as 100% (KIT L576P; binding, competition with immobilised ligand; 1 µM).
With `Cc1cnc2nc1Nc1cccc(c1)COC/C=C/COCc1cc(ccc1OCCN1CCOCC1)N2` the remaining binding was 23% (KIT (Homo sapiens, UniProt P10721); binding; 0.1 µM).
For `CCN1CCN(Cc2ccc(C(=O)Nc3ccc(C)c(NCc4cnc5[nH]ccc5c4OC)c3)cc2C(F)(F)F)CC1`, the remaining binding was 0.1% (KIT (Homo sapiens, UniProt P10721, V559D); binding, competition with immobilised ligand; 1 µM).
The remaining binding of `Cc1ccc(-c2c(/C=C(\C#N)C(=O)NC(C)C)n(CCCO)c3ncnc(N)c23)cc1` is reported as 86% (KIT D816H; cell-free assay, competition with immobilised ligand; 1 µM).
For `C=CC(=O)N1CCc2ccc(-n3c(=O)ccc4cnc5ccc(-c6cnn(C)c6)cc5c43)cc21`, the remaining binding was 96% (KIT D816H; KINOMEscan; 1 µM; baseline: DMSO control).
For `CNC(=O)C1CCN(c2cc(C)c(F)cc2NC(=O)c2ccc(-c3cc(O)ccc3C)c(C)c2)CC1`, the remaining binding was 91% (KIT (Homo sapiens, UniProt P10721, V559D/V654A); binding, competition with immobilised ligand; 1 µM).
`C=CC(=O)N1CCCC(n2c(=O)c3ncccc3n(Cc3ccc(Oc4ccccc4)cc3)c2=O)C1` (stereo not shown) has a remaining binding of 74% (KIT D816H; cell-free assay, competition with immobilised ligand; 1 µM).
The remaining binding of `COc1c(Cl)cccc1Nc1c(-c2ccncc2C#C[C@@]2(C)CCCN2C(=O)/C=C/CN(C)C)[nH]c2c1C(=O)NCC2` is reported as 88% (KIT L576P; binding, competition with immobilised ligand; 3 µM).
With `CNC1C[S+]2CC[S+]3CC[S+](C1)[Ru-4]321([N]=C=S)[n]2c3ccc(OC)cc3c3c4c(c5cc(F)c[n+]1c5c32)C(=O)NC4=O` (stereo not shown) the remaining binding was 40% (KIT D816H; KinomeScan; 0.1 µM; baseline: untreated).
`CC(C)=CC1OC(C)(C)C2C=C3C(=O)C(Cl)=CC(O)C3C3C(O)C4OC4C(=O)C132` (stereo not shown) has a remaining binding of 84% (KIT (Homo sapiens, UniProt P10721, D816V); cell-free assay, competition with immobilised ligand; 10 µM).
